# Published values pooled from the literature.
# Each line is one published result; not all experiments were run side by side. Numbers after ± are the reported error. Where no end group is shown, it is not given here.
# Protein farnesyltransferase: Protein farnesyltransferase (Homo sapiens, UniProt P49354+P49356)
# SLC10A1: Hepatic sodium/bile acid cotransporter (SLC10A1, Homo sapiens, UniProt Q14973)
# GPR17 R283I short isoform: Uracil nucleotide/cysteinyl leukotriene receptor, short isoform (GPR17, Homo sapiens, UniProt Q13304, R283I)
# UGT1A9: UDP-glucuronosyltransferase 1A9 (UGT1A9, Homo sapiens, UniProt O60656)
# ALB: Albumin (ALB, Homo sapiens, UniProt P02768)
# CXCR4: C-X-C chemokine receptor type 4 (CXCR4, Homo sapiens, UniProt P61073)
# T1: RNA aptamer optimized Class V; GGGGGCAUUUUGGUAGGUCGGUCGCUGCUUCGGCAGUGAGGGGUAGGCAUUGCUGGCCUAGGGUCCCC
# T2: RNA aptamer A45C/A49U/C71U; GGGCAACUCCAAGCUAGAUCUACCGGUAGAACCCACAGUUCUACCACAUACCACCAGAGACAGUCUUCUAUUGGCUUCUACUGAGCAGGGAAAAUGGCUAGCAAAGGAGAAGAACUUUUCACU
# B1: side-chain stapled; chain AACVSFQNLDCG (also: sidechain bridge or staple (positions not given here))
Substance,target,test,test system,conditions,how to read,quantity,result
CIIL,Protein farnesyltransferase,"enzyme activity, substrate, fluorimetric",peptide,"3 µM, 30 min, with: 9 µM farnesyl diphosphate",baseline: dansyl-GCVLS (set to 1.0),relative fluorescence increase,1.01
CCCc1cc(-c2cncc(OC[C@@H](N)Cc3c[nH]c4ccccc34)c2)cc2c(C)n[nH]c12,"AKT1 (Homo sapiens, UniProt P31749, M227G)","enzyme activity, immunoprecipitation kinase",HEK293,"2.5 µM, 30 min, hyperphosphorylated analogue-sensitive Akt1",baseline: untreated,kinase activity,~10 fold
N[C@@H](C(=O)N[C@@H]1C(=O)N2C(C(=O)O)=C(Cl)CS[C@H]12)c1ccccc1,SLC10A1,inhibitor,HEK293 expressing NTCP,"100 µM, 5 min, with: taurocholate 10 µM",baseline: no compound,taurocholate uptake,99.1 ± 6.2%
CCCCCC(C)O (stereo not drawn),Chilo suppressalis CSP2,"binding, competitive fluorescence displacement",,"30 µM, pH 7.4",,fluorescence intensity,35.1 ± 3.39%
Nc1nc2c(ncn2[C@@H]2O[C@H](COP(=O)(O)OP(=O)(O)OP(=O)(O)O)[C@@H](O)[C@H]2O)c(=O)[nH]1,"T1, RNA aptamer optimized Class V",ultrafiltration,,"apparent, with: GTP",,Kd,0.017 µM
CCCCC(C(=O)COc1c(F)c(F)cc(F)c1F)n1cc(C2(N)CCNCC2)nn1 (stereo not drawn),"DPAP1 (Plasmodium falciparum, UniProt Q8IIJ9)",inhibitor,parasite lysate,with: (Pro-Arg)2-rhodamine substrate,,second-order inactivation rate constant,< 20 M⁻¹ s⁻¹
C[C@H](NC(=O)[C@H](C)NC(=O)[C@H](CCCNC(=N)N)N(C)C(=O)[C@@H]1CCCN1C(=O)[C@H](CCCNC(=N)N)NC(=O)CNC(=O)c1ccc2c(c1)C1(OC2=O)c2ccc(O)cc2Oc2cc(O)ccc21)C(=O)N[C@H](C(=O)N[C@@H](Cc1ccccc1)C(=O)N[C@@H](C)C(=O)N[C@@H](CCC(=O)O)C(=O)NCC(N)=O)[C@@H](C)O,"AKT1 (Homo sapiens, UniProt P31749)","substrate, CE-LIF",,"25 µM, pH 7.0, 30 °C, enzyme 6 nM, with: ATP 1 mM",,time to half phosphorylation,1010 min
C[N+](C)(C)CCOC(N)=O,Gi/o proteins,[3H]GDP binding SPA,CHO cell membranes,"10 µM, with: [3H]GDP 500 nM",baseline: control,GDP dissociation rate increase,6.3 to 6.5 fold
N.N.Nc1nc(Cl)nc2c1ncn2[C@H]1C[C@H](OP(=O)(O)O)[C@@H](COP(=O)(O)O)O1,GPR17 R283I short isoform,frontal affinity chromatography-MS,mutated receptor IAM column,concentration not given,baseline: wild type column,breakthrough time change,-0.3%
N=C(N)NCC(=O)NCC1(Cc2ccccc2)CCN(Cc2ccccc2)CC1,"Neuropeptide FF receptor 2 (Homo sapiens, UniProt Q9Y5X5)","receptor activation, agonist",,,,highest concentration inactive,≤ 1 µM
CC(=O)Oc1ccccc1C(=O)O,"CDK1 (Homo sapiens, UniProt P06493)","acetylation, anti-acetyl-lysine immunoblot",,12 h,,threshold concentration,0.25 mM
Oc1ccc(N=Nc2ccccc2)cc1,UGT1A9,substrate,,"pH 7.4, 37 °C",,Vmax,1160 pmol/mg/min
CN(C)C/C=C/C(=O)Nc1cccc(C(=O)Nc2ccc(Nc3nccc(-c4c(-c5ccccc5)nn5ccccc45)n3)cc2)c1,"PRKDC (Homo sapiens, UniProt P78527)","ATP-biotin probe labeling, KiNativ",A-375,"1 µM, 3 h, second of two sites",,inhibition,-9.4%
CAIL,Protein farnesyltransferase,"enzyme activity, substrate, fluorimetric",peptide,"3 µM, 30 min, with: 9 µM farnesyl diphosphate",baseline: dansyl-GCVLS (set to 1.0),relative fluorescence increase,0.71
C[C@H]1C[C@@H]2[C@H]([C@@H](O)C[C@@]3(C)[C@H]2CC[C@]3(O)C(=O)CO)[C@@]2(C)C=CC(=O)C=C12,SLC10A1,inhibitor,HEK293 expressing NTCP,"100 µM, 5 min, with: taurocholate 10 µM",baseline: no compound,taurocholate uptake,79.5 ± 3.5%
NC[C@@H]1O[C@H](O[C@H]2[C@@H](O)[C@H](O[C@@H]3[C@@H](O)[C@H](N)C[C@H](N)[C@H]3O[C@H]3O[C@H](CN)[C@@H](O)[C@H](O)[C@H]3N)O[C@@H]2CO)[C@H](N)[C@@H](O)[C@@H]1O,"T2, RNA aptamer A45C/A49U/C71U",ITC,,"25 °C, KCl 250 mM",,Kd,> 10 µM
CQNL,Protein farnesyltransferase,"enzyme activity, substrate, fluorimetric",peptide,"3 µM, 30 min, with: 9 µM farnesyl diphosphate",baseline: dansyl-GCVLS (set to 1.0),relative fluorescence increase,0
O=[N+]([O-])c1ccc(O)cc1,UGT1A9,substrate,,"pH 7.4, 37 °C",,Vmax,2900 pmol/mg/min
Cc1ccc(NC(=O)c2ccc(CN3CCN(C)CC3)cc2)cc1Nc1nccc(-c2cccnc2)n1,SLC10A1,inhibitor,HEK293 expressing NTCP,"100 µM, 5 min, with: taurocholate 10 µM",baseline: no compound,taurocholate uptake,90.7 ± 1.6%
CPIL,Protein farnesyltransferase,"enzyme activity, substrate, fluorimetric",peptide,"3 µM, 30 min, with: 9 µM farnesyl diphosphate",baseline: dansyl-GCVLS (set to 1.0),relative fluorescence increase,< 0.05
COc1cnc(NS(=O)(=O)c2ccc(NC(=O)/C=C/c3ccc(O)cc3)cc2)nc1,ALB,tryptophan fluorescence quenching,,"pH 7.4, 298 K, ALB 1 µM, site I",,Ka,48000 L/mol
Cc1ccc(C(Nc2ccc(C(=O)O)cc2)c2ccc3cccnc3c2O)cc1 (stereo not drawn),"CAAX prenyl protease 2 (Homo sapiens, UniProt Q9Y256)","enzyme activity, inhibitor",,10 µM,,remaining activity,23 to 32%
O=C(Cn1c2ccccc2c2ccncc21)N(c1ccc(F)cc1)c1ccc(F)cc1,"Proteasome subunit alpha type-2/Proteasome subunit alpha type-6, 20S proteasome (Homo sapiens, UniProt P25787+P60900)","proteolysis, activator, fluorogenic peptide",purified 20S proteasome,"up to 30 µM, with: Suc-LLVY-AMC, Z-LLE-AMC, Boc-LRR-AMC",baseline: vehicle,maximum fold increase,5.5
N.N.N.O=c1[nH]c(=O)n([C@@H]2O[C@H](COP(=O)(O)OP(=O)(O)O)[C@@H](O)[C@H]2O)cc1I,GPR17 R283I short isoform,frontal affinity chromatography-MS,mutated receptor IAM column,concentration not given,baseline: wild type column,breakthrough time change,-10%
CCCCCC/C=C\CCCCCCCC=O,Chilo suppressalis CSP2,"binding, competitive ligand, fluorescence competitive binding",,"highest concentration tested, pH 7.4, protein 2 µM, with: 1-NPN 2 µM",baseline: no ligand,remaining 1-NPN fluorescence,36 ± 2.07%
CCOc1ccc2ccccc2c1C(=O)N[C@@H]1C(=O)N2[C@@H]1SC(C)(C)[C@@H]2C(=O)O,SLC10A1,inhibitor,HEK293 expressing NTCP,"100 µM, 5 min, with: taurocholate 10 µM",baseline: no compound,taurocholate uptake,96.7 ± 5.6%
O=c1ccn([C@@H]2O[C@H](COP(=O)(O)OP(=O)(O)O)[C@@H](O)[C@H]2O)c(=O)[nH]1,"galU (Streptococcus pneumoniae, UniProt A0A0H2ZMV4)","enzyme activity, inhibitor","Streptococcus pneumoniae, extract of treated cells","1 h, 37 °C",,inhibitory concentration,5 µM
COc1ccc(/C=C/c2cccc3c2COB3O)cc1,ALB,"fluorescence quenching, van't Hoff",,concentration not given,,binding enthalpy,0.468 kcal/mol
CN(Cc1ccncc1)Cc1cccc(CN(C)Cc2ccncc2)n1,CXCR4,"binding, competition binding",MDA-MB-231,"semi-quantitative screen, with: biotinylated TN14003",,lowest effective concentration,> 1000 nM
hirudin,"Prothrombin, thrombin form (Mus musculus, UniProt P19221)",Cy5/Cy7 ratiometric imaging,mouse tail-clip model,"s.c., 2000 U/mouse, 20 min before probe",,inhibition of clot signal,> 90%
c1ccc(CN(Cc2ccc(CN(Cc3ccccc3)CC3CC3)cc2)CC2CC2)cc1,CXCR4,"binding, competition binding",MDA-MB-231,"semi-quantitative screen, with: biotinylated TN14003",,lowest effective concentration,1000 nM
CNc1nc(Cl)cc2c1ncn2[C@@H]1O[C@H](COP(=O)(O)OP(=O)(O)OP(=O)(O)O)[C@@H](O)[C@H]1O.N.N.N.N,GPR17 R283I short isoform,frontal affinity chromatography-MS,mutated receptor IAM column,concentration not given,baseline: wild type column,breakthrough time change,21.4%
N#Cc1ccccc1Oc1ccc(Br)cc1O,"Enoyl-[acyl-carrier-protein] reductase [NADPH] FabI (Staphylococcus aureus, UniProt Q6GI75)","enzyme activity, inhibitor, progress curve kinetics",,,,dissociation rate constant,0.28 h⁻¹
CC1N=C2C(=O)N=C(N)N=C2NC1C (stereo not drawn),"Pteridine reductase 1 (Leishmania major, UniProt Q01782)","substrate inhibition, substrate, NADPH oxidation",,"pH 7.4, 25 °C, substrate made in situ, with: NADPH 50 µM",,Ki,92.2 ± 18.9 µM
COc1cc2c(NC3CCN(CCCC(=O)NCCCCCCC(=O)N[C@H](C(=O)N4C[C@H](O)C[C@H]4C(=O)NCc4ccc(-c5scnc5C)cc4)C(C)(C)C)CC3)nc(N3CCC(F)(F)CC3)nc2cc1OCCCN1CCCC1,"EHMT2 (Homo sapiens, UniProt Q96KQ7)","degrader, western blot",,"0.3 µM, 24 h",baseline: DMSO,degradation,< 10%
CCC/C=C/C=O,Chilo suppressalis CSP2,"binding, competitive ligand, fluorescence competitive binding",,"highest concentration tested, pH 7.4, protein 2 µM, with: 1-NPN 2 µM",baseline: no ligand,remaining 1-NPN fluorescence,61.3 ± 3.02%
B1,"DPP9 (Homo sapiens, UniProt Q86TI2)",enzyme activity,,"200 µM, 37 °C",baseline: FAPα over DPP9,selectivity ratio,18 fold
CS(=O)(=O)c1ccc([C@@H](CC2CCCC2)C(=O)Nc2nccs2)cc1,"Hexokinase-4 (Mus musculus, UniProt P52792)",activator,,"3 µM, pH 7.4, 37 °C, with or without BAD SAHB, with: glucose 0 to 50 mM, ATP 5 mM",,Hill coefficient,1.71 ± 0.06
CC[C@H](C)[C@H](NC(=O)[C@H](CCC(N)=O)NC(=O)[C@H](CS)NC(=O)[C@@H](NC(=O)[C@H](Cc1c[nH]cn1)NC(=O)[C@H](CC(=O)O)NC(=O)[C@H](C)NC(=O)[C@H](CC(C)C)NC(=O)[C@@H](NC(=O)[C@@H](NC(=O)[C@H](CC(C)C)NC(=O)[C@H](CCCNC(=N)N)NC(=O)[C@H](Cc1c[nH]cn1)NC(=O)[C@@H](NC(=O)[C@H](CCCNC(=N)N)NC(=O)[C@@H]1CCCN1C(=O)[C@@H](NC(=O)[C@H](CCC(N)=O)NC(=O)CN)C(C)C)[C@@H](C)O)[C@@H](C)CC)[C@@H](C)O)[C@@H](C)CC)C(=O)N[C@@H](C)C(=O)N[C@H](C(=O)N[C@@H](CCC(N)=O)C(=O)N[C@@H](CC(=O)O)C(=O)N[C@@H](Cc1ccccc1)C(=O)N[C@@H](C)C(=O)N[C@@H](CCCNC(=N)N)C(=O)O)[C@@H](C)O,"NR1D1 (Homo sapiens, UniProt P20393)","NCoR peptide binding, competitor, TR-FRET",,"1 h, with: labelled NCoR 2040-2065 peptide",baseline: mutant over wild-type peptide,IC50 fold change,88.2
CC/C=C\CCOC(C)=O,"chemosensory protein 1 (Chilo suppressalis, UniProt V9PY22)","binding, competitive ligand, fluorescence competitive binding",,"highest concentration tested, pH 7.4, protein 2 µM, with: 1-NPN 2 µM",baseline: no ligand,remaining 1-NPN fluorescence,85.8 ± 2.19%
CSQL,Protein farnesyltransferase,"enzyme activity, substrate, fluorimetric",peptide,"3 µM, 30 min, with: 9 µM farnesyl diphosphate",baseline: dansyl-GCVLS (set to 1.0),relative fluorescence increase,0
CN1CCN(CCCN2c3ccccc3Sc3ccc(Cl)cc32)CC1,SLC10A1,inhibitor,HEK293 expressing NTCP,"100 µM, 5 min, with: taurocholate 10 µM",baseline: no compound,taurocholate uptake,81 ± 2.5%

# Excerpt of the above:
Substance,target,test,test system,conditions,how to read,quantity,result
N[C@@H](C(=O)N[C@@H]1C(=O)N2C(C(=O)O)=C(Cl)CS[C@H]12)c1ccccc1,SLC10A1,inhibitor,HEK293 expressing NTCP,"100 µM, 5 min, with: taurocholate 10 µM",baseline: no compound,taurocholate uptake,99.1 ± 6.2%
N=C(N)NCC(=O)NCC1(Cc2ccccc2)CCN(Cc2ccccc2)CC1,"Neuropeptide FF receptor 2 (Homo sapiens, UniProt Q9Y5X5)","receptor activation, agonist",,,,highest concentration inactive,≤ 1 µM
c1ccc(CN(Cc2ccc(CN(Cc3ccccc3)CC3CC3)cc2)CC2CC2)cc1,CXCR4,"binding, competition binding",MDA-MB-231,"semi-quantitative screen, with: biotinylated TN14003",,lowest effective concentration,1000 nM
CS(=O)(=O)c1ccc([C@@H](CC2CCCC2)C(=O)Nc2nccs2)cc1,"Hexokinase-4 (Mus musculus, UniProt P52792)",activator,,"3 µM, pH 7.4, 37 °C, with or without BAD SAHB, with: glucose 0 to 50 mM, ATP 5 mM",,Hill coefficient,1.71 ± 0.06
